Measured values from different studies.
Several values in a cell are separate wells, animals, samples, runs or records. ± gives the spread as reported.

With `CC1(C)C(NC(=O)C(=NOC2(C(=O)O)CC2)c2csc(N)n2)C(=O)N1OS(=O)(=O)O` (centres unmarked) the CC50 was > 100 µM (PANC-1; cell growth or viability).
Under “log2 fold change”, `COC1CN([C@H]2CC[C@H]([C@@]3(C)Oc4c(Cl)cc(C(=O)NCc5c(SC)cc(C)[nH]c5=O)c(C)c4O3)CC2)C1` is recorded as 2.43 (RNA-seq, refers to: METTL27; human, whole blood; dose not given, 24 h; relative to: pretreatment baseline).
With `O=C(OC[C@@]1(O)C(=O)C=C[C@H]2[C@@H]1[C@H]1C=C[C@@H]2C(=O)[C@]1(O)COC(=O)c1ccccc1)c1ccccc1` the IC50 was 60.9 µM (K562; cell growth or viability, MTT).
The hemolysis of `CC(C)C[C@@H]1NC(=O)[C@@H](CC(C)C)NC(=O)[C@H](CCN)NC(=O)[C@@H](NC(=O)[C@H](CCN)NC(=O)[C@@H](N)[C@@H](C)O)CCNC(=O)[C@H]([C@@H](C)O)NC(=O)[C@H](CCN)NC(=O)[C@H](CCN)NC1=O` is reported as < 5% (sheep erythrocytes; 512 µg/mL, 37 °C; relative to: Triton X-100).
`N[C@@H](CNC(=O)N[C@@H](CS)C(=O)NCC(=O)O)C(=O)O` — result for “tight junction protein level”: “no effect” (RPMI-2650; immunoblot, refers to: ZO-1, claudin-1, occludin; 0.5 mM, up to 8 h).
`Cc1ncsc1-c1ccc(C(C)NC(=O)C2CC(O)CN2C(=O)C(NC(=O)CCCCCCCCCCN2CCCC(Nc3ncc(Cl)c(Nc4ccccc4S(=O)(=O)C(C)C)n3)C2)C(C)(C)C)cc1` (centres unmarked) — result for “log2 fold change”: -1.01 (22Rv1; RNA-seq, refers to: RGP1 mRNA; concentration not given; relative to: DMSO).
With `Cc1nc(Nc2ncc(C(=O)Nc3c(C)cccc3Cl)s2)cc(N2CCN(C(=O)CCOCCNC(=O)CN)CC2)n1` the viability was 71% and 69% (K562; cell growth or viability, CCK-8; 5 nM).
Under cytotoxicity, `Nc1ncnc2c1ncn2[C@@H]1O[C@H](CSCc2ccc3ccccc3c2Br)[C@@H](O)[C@H]1O` is recorded as “not toxic” (Calu-3; concentration not given).
`O=C1NC2(CC2)COc2ncc(F)cc2[C@H]2COCCN2c2ccn3ncc1c3n2` gave a structural aberrations of 1% (CHL; 150 µg/mL, 4 h, with rat liver S9).
`C=CC(=O)Nc1cccc(Cn2ncc3cnc(Nc4cnn(CCOC)c4)nc32)c1` gave a binding of 66% (human KIT-autoinhibited; KINOMEscan; 100 nM).
`CN(C)C(=O)COC(=O)Cc1ccc(OC(=O)c2ccc(NC(=N)N)cc2)cc1` has a CC50 of > 500 µM (Calu-3; 48 (unit not given)).
For `COc1cc2nc(NC3CCN(Cc4ccc(C(N)=O)cc4)CC3)nc(Oc3c(C)cc(C#N)cc3C)c2cc1OC`, the CC50 was 15.5 µM (MT4; cell growth or viability, MTT).
`CC[C@H](C)[C@H](NC(=O)[C@@H](NC(=O)[C@@H](N)CO)[C@@H](C)CC)C(=O)N[C@@H](CC(N)=O)C(=O)N[C@@H](Cc1ccccc1)C(=O)N[C@@H](CCC(=O)O)C(=O)N[C@@H](CCCCNC(=O)c1ccc2c(c1)C(=O)OC21c2ccc(O)cc2Oc2cc(O)ccc21)C(=O)N[C@@H](CC(C)C)C(=O)O` — result for “intact peptide remaining”: 8.8 ± 5.3% (PANC-1, single microinjected; CE-LIF; 100 µM, 2 min, 37 °C).
`CCc1c(-c2ccc3[nH]ncc3c2)cnc(N)c1-c1ccc(O)cc1` has a viability of 87.2% and 85.7% (CHP-212 resistant sublines (heterozygous USP7 V517F); cell viability; 12.5 µM).
`NC[C@H]1O[C@H](O[C@H]2[C@H](O)[C@@H](O[C@H]3O[C@H](Cn4cc(CNC(=S)Nc5ccc6c(c5)C(=O)OC65c6ccc(O)cc6Oc6cc(O)ccc65)nn4)[C@@H](O)[C@H](N)[C@H]3O)[C@H](N)C[C@@H]2N)[C@H](O)[C@@H](O)[C@@H]1O` — result for “cells with uptake”: 10% and ~10% (C2C12; flow cytometry; 5 µM, 24 h).
For `Cn1c(=O)c(-c2ccccc2Cl)cc2cnc(Nc3cccc(S(C)(=O)=O)c3)nc21`, the CC50 was > 25 µM (HCT-8; cell growth or viability; 48 h).
Under cytotoxicity, `C=CC(=O)Oc1ccc(OC)c(-c2c[nH]c3ncc(-c4cncc(C(=O)N(C)C)c4)cc23)c1` is recorded as “not toxic” (Ba/F3 parental, IL-3-dependent; concentration not given).

For quick reference, copied from above:
With `O=C(OC[C@@]1(O)C(=O)C=C[C@H]2[C@@H]1[C@H]1C=C[C@@H]2C(=O)[C@]1(O)COC(=O)c1ccccc1)c1ccccc1` the IC50 was 60.9 µM (K562; cell growth or viability, MTT).
The hemolysis of `CC(C)C[C@@H]1NC(=O)[C@@H](CC(C)C)NC(=O)[C@H](CCN)NC(=O)[C@@H](NC(=O)[C@H](CCN)NC(=O)[C@@H](N)[C@@H](C)O)CCNC(=O)[C@H]([C@@H](C)O)NC(=O)[C@H](CCN)NC(=O)[C@H](CCN)NC1=O` is reported as < 5% (sheep erythrocytes; 512 µg/mL, 37 °C; relative to: Triton X-100).
